Measured values from different studies.
A part holds a random share of what one study measured.

Series 1 — technique: protein-binding microarray; form: double-stranded DNA, one strand shown; medium: in vitro; concentration: 250 nM; notes: 60-bp whole probe; together with: salmon DNA 0.4 mg/ml; relative to: random background probes; direction: higher = stronger binding; endpoint: log fluorescence
Target: Interferon regulatory factor 5, full length, phosphomimetic (IRF5, Homo sapiens, UniProt Q13568-2, residues 1-514, K96S/S451D/S453D/S456D/S462D)
GCCTAGCACTTCGATCTCAGACTGGATTAGTGCTAGGTCTTGATTCGCTTGACGCTGCTG: 0.411 z-score
GCCTAGCACGACGGTATCGGGTGTCGGGACGTGCTAGTCTTGATTCGCTTGACGCTGCTG: 2.26 z-score
GCCTAGCACTCAGCTACCTCTCTTAGACTGTGCTAGGTCTTGATTCGCTTGACGCTGCTG: -0.177 z-score
GCCTAGCACTTAGGACTGGGTTTCGGTAAGTGCTAGGTCTTGATTCGCTTGACGCTGCTG: 6.5 z-score

Series 2 — technique: RNA Bind-n-Seq; form: RNA; medium: in vitro; concentration: 200 nM; notes: whole 134-nt RNA, ends assumed; together with: 150 mM LiCl; relative to: input library; direction: higher = stronger binding; endpoint: log2 enrichment; all molecules: 7-deaza-guanosine replaces G
Target: Fragile X messenger ribonucleoprotein 1, C-terminal low-complexity region (Fmr1, Mus musculus, UniProt P35922)
GGGAGUUCUACAGUCCGACGAUCCUCAAGUCCUGUGCUACACAUCGUAUGUACCGAAUCGGUGGAAAGGAAAAAGGAAAGUAUUAUGUUACGCCGUUCGGAUCUGCACUUCCAUGGAAUUCUCGGGUGUCAAGG: -0.262
GGGAGUUCUACAGUCCGACGAUCUGGGAGGUGGAUUUUGUUUAUUUUUUUAGCGCAUUUCCAGGGGUGGGAAUUUUUUUUUAAUAUGUGUCAUGAAUAAAGUUGUUUUUGAAAUGGAAUUCUCGGGUGUCAAGG: 0.453
GGGAGUUCUACAGUCCGACGAUCCCUGUGCUACACAUCGUAUGUACCGAAUCGGGCCCCCCGGGCCCCCCGGGGCCCCCCGGGAAAGUAUUAUGUUACGCCGUUCGGAUCUGCUGGAAUUCUCGGGUGUCAAGG: -2.52
GGGAGUUCUACAGUCCGACGAUCCCUCAAGUCCUGUGCUACACAUCGUAUGUACCGAAUCGGAAAAAGGUGGAGGAAAGUAUUAUGUUACGCCGUUCGGAUCUGCACUUCCAGUGGAAUUCUCGGGUGUCAAGG: -0.0643

Series 3 — technique: protein binding microarray; form: double-stranded DNA, one strand shown; medium: in vitro; concentration: not given; relative to: not given; direction: higher = stronger binding; endpoint: E-score
Target: Histone acetyltransferase KAT6A, both winged helices, GST fusion (KAT6A, Homo sapiens, UniProt Q92794, residues 1-181)
Notes: 8-mer, flanks averaged, mean of 2 arrays, mostly near background
Construct (chain): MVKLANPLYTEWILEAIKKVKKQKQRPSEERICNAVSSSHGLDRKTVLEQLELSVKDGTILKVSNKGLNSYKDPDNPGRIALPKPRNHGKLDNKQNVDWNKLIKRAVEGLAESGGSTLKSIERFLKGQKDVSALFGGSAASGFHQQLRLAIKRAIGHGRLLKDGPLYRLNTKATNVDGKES
ACTTTCAT: -0.141
CTATCTAC: -0.166
ACACCCGT: 0.205
CCGGTTAG: 0.17

Other studies, line by line
PhoQ, residues 284 288 289 292 302 303 TYGVAM — fold induction (PhoP, residues 12 14 15 18 19 FWNTL (Escherichia coli, UniProt P23836); Sort-seq, refers to: YFP reporter; E. coli; PhoQ-PhoP variant library, together with: 10 µM Mg2+; relative to: high Mg2+ state, higher = stronger signaling): 3.17

Excerpt of the above (series 1):
GCCTAGCACGACGGTATCGGGTGTCGGGACGTGCTAGTCTTGATTCGCTTGACGCTGCTG: 2.26 z-score
